Experimental data pooled from the literature.
Chain of UniProt P42785 (whole entry, looked up): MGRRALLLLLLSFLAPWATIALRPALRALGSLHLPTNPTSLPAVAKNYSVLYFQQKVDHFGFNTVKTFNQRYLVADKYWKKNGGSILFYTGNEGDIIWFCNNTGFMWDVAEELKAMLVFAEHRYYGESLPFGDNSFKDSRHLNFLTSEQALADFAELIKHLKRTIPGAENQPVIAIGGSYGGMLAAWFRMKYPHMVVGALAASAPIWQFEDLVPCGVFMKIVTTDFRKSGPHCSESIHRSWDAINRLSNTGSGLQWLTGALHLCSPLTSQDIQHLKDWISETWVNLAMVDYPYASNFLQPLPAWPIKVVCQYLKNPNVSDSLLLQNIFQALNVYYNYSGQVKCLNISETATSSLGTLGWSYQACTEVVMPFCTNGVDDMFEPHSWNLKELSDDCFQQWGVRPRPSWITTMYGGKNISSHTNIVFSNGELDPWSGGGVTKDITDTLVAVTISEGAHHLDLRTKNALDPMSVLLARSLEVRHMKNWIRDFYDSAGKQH

SMILES	tested on	test	system	setting	how to read	endpoint	result
CN1CC[C@@H](c2c(O)cc(O)c3c(=O)cc(-c4ccc(C(F)(F)F)cc4Cl)oc23)[C@@H]1CO		refers to: Sepsis	AML	oral, 150 mg, intermittent dosing		patients with adverse event	50%
CC[C@H](C)[C@H](NC(=O)[C@H](Cc1ccccc1)NC(=O)[C@H](CCC(=O)O)NC(=O)[C@H](CCCNC(=N)N)NC(=O)[C@H](C)NC(=O)[C@H](C)NC(=O)[C@H](CCC(N)=O)NC(=O)[C@H](CCC(=O)O)NC(=O)[C@H](CCC(=O)O)NC(=O)[C@H](CC(C)C)NC(=O)[C@H](Cc1ccc(O)cc1)NC(=O)[C@H](CO)NC(=O)[C@H](CO)NC(=O)[C@@H](NC(=O)[C@H](CC(=O)O)NC(=O)[C@H](CO)NC(=O)[C@@H](NC(=O)[C@H](Cc1ccccc1)NC(=O)[C@@H](NC(=O)CNC(=O)[C@H](CCC(=O)O)NC(=O)[C@H](C)NC(=O)CCc1c[nH]cn1)[C@@H](C)O)[C@@H](C)O)C(C)C)C(=O)N[C@@H](C)C(=O)N[C@@H](Cc1c[nH]c2ccccc12)C(=O)N[C@@H](CC(C)C)C(=O)N[C@H](C(=O)N[C@@H](CCCNC(=N)N)C(=O)NCC(=O)N[C@@H](CCCNC(=N)N)C(=O)N[C@@H](CCCCNC(=O)COCCOCCNC(=O)COCCOCCNC(=O)CC[C@H](NC(=O)CCCCCCCCCCCCCCCCC(=O)O)C(=O)O)C(=O)NCC(=O)NCC(=O)N[C@@H](CO)C(=O)N[C@@H](CCCCNc1c(NCCCCCN(O)C(=O)CCC(=O)NCCCCCN(O)C(=O)CCC(=O)NCCCCCN(O)C(C)=O)c(=O)c1=O)C(=O)O)C(C)C [zirconium-89 labelled]		gamma counting	rat, skin of neck	intravenous, 3 nmol/kg, 4 h		tissue uptake	0.48 %ID/g
CNC(=O)Oc1cccc2c1OC(C)(C)C2O (stereo not shown)	SH-SY5Y	cell viability		freely dissolved concentration		IC10	82.2 µM
CC[C@H](C)[C@H](NC(=O)[C@H](CCCNC(=N)N)NC(=O)[C@H](CCCNC(=N)N)NC(=O)[C@H](CCCNC(=N)N)NC(=O)[C@H](CCCNC(=N)N)NC(=O)[C@H](CC(C)C)NC(=O)[C@H](CCCNC(=N)N)NC(=O)[C@H](CO)NC(=O)[C@@H](N)CO)C(=O)N[C@H](C(=O)N[C@@H](CC(C)C)C(=O)N[C@@H](CCCNC(=N)N)C(=O)N[C@@H](CCCNC(=N)N)C(=O)N[C@@H](CCCNC(=N)N)C(=O)N[C@@H](CCCNC(=N)N)C(=O)N[C@@H](Cc1ccccc1)C(=O)N[C@@H](CO)C(=O)N[C@@H](C)C(=O)N[C@@H](Cc1ccc(O)cc1)C(N)=O)C(C)C	human erythrocytes			400 µM, 1 h	baseline: Triton X-100	hemolysis	7%
O=C(c1ccc(Cl)cc1)N1CCN2C(=O)N(OC(=O)N3CCOc4ccccc43)C(=O)C2C1 (stereo not shown)	Lysosomal Pro-X carboxypeptidase (PRCP, Homo sapiens, UniProt P42785)	enzyme activity, inhibitor, MS-based ABPP	SW-620 in situ	10 µM, 2 h, 37 °C	baseline: compound over DMSO, lower = stronger inhibition	median ratio	1.03
Cc1cc(C(=O)NC(C)(C)COc2cccc3c2C(N)=NS(=O)(=O)N3)cc(C)n1	Salmonella typhimurium	Ames test, initial	TA1537	150 µg/plate, with: rat liver S9	baseline: solvent control	revertant ratio	1.3
CC[C@H](C)[C@H](N)C(=O)N[C@@H](CO)C(=O)N[C@@H](Cc1ccccc1)C(=O)N[C@@H](CC(C)C)C(=O)NCC(=O)N[C@@H](CO)C(=O)N[C@@H](CCCCN)C(=O)N[C@H](C(=O)N[C@H](C(=O)N[C@H](C(=O)N[C@@H](CC(C)C)C(=O)N[C@@H](CC(C)C)C(=O)N[C@@H](CCCCN)C(=O)N[C@@H](CCCNC(=N)N)C(=O)N[C@@H](CCCNC(=N)N)C(=O)N[C@@H](CCCNC(=N)N)C(=O)N[C@@H](CCCNC(=N)N)C(=O)N[C@@H](CCCNC(=N)N)C(=O)N[C@@H](CCCNC(=N)N)C(=O)N[C@@H](CCCNC(=N)N)C(N)=O)C(C)C)C(C)C)C(C)C	human erythrocytes			400 µM, 1 h	baseline: Triton X-100	hemolysis	14%
COc1cc2c(Oc3ccc4[nH]c(C)cc4c3F)ccnc2cc1OCC1(N)CC1		refers to: grade 1 or 2 intestinal obstruction	paediatric high-risk refractory sarcoma	whole group		incidence of adverse event	0%
COc1ccc(-n2nc(C(C)=O)s/c2=N\N=C(/C)c2ccc(NC(C)=O)cc2)cc1	WI-38			5 µM, 24 (unit not given)		viability	3.98%
CCN(CC)C(=O)[C@@H]1C=C2c3cccc4[nH]cc(c34)C[C@H]2N(C)C1		refers to: impaired balance	healthy volunteers	dose not given, 12 to 24 h	baseline: placebo, direction not given	List of Complaints score	2
CC[C@H](C)[C@H](NC(=O)[C@H](Cc1ccccc1)NC(=O)[C@H](CCC(=O)O)NC(=O)[C@H](CCCNC(=N)N)NC(=O)[C@H](C)NC(=O)[C@H](C)NC(=O)[C@H](CCC(N)=O)NC(=O)[C@H](CCC(=O)O)NC(=O)[C@H](CCC(=O)O)NC(=O)[C@H](CC(C)C)NC(=O)[C@H](Cc1ccc(O)cc1)NC(=O)[C@H](CO)NC(=O)[C@H](CO)NC(=O)[C@H](CCCCNc1c(NCCCCCN(O)C(=O)CCC(=O)NCCCCCN(O)C(=O)CCC(=O)NCCCCCN(O)C(C)=O)c(=O)c1=O)NC(=O)[C@H](CC(=O)O)NC(=O)[C@H](CO)NC(=O)[C@@H](NC(=O)[C@H](Cc1ccccc1)NC(=O)[C@@H](NC(=O)CNC(=O)[C@H](CCC(=O)O)NC(=O)[C@H](C)NC(=O)CCc1cnc[nH]1)[C@@H](C)O)[C@@H](C)O)C(=O)N[C@@H](C)C(=O)N[C@@H](Cc1c[nH]c2ccccc12)C(=O)N[C@@H](CC(C)C)C(=O)N[C@H](C(=O)N[C@@H](CCCCNc1c(NCCCCCN(O)C(=O)CCC(=O)NCCCCCN(O)C(=O)CCC(=O)NCCCCCN(O)C(C)=O)c(=O)c1=O)C(=O)NCC(=O)N[C@@H](CCCNC(=N)N)C(=O)N[C@@H](CCCCNC(=O)COCCOCCNC(=O)COCCOCCNC(=O)CC[C@H](NC(=O)CCCCCCCCCCCCCCCCC(=O)O)C(=O)O)C(=O)O)C(C)C	Glucagon-like peptide 1 receptor (GLP1R, Homo sapiens, UniProt P43220)	cAMP reporter gene, agonist, CRE luciferase	BHK	with Zr, 1% HSA		EC50	0.0027 µM
CO[C@H]1C[C@@H]2CC[C@@H](C)[C@@](O)(O2)C(=O)C(=O)N2CCCC[C@H]2C(=O)O[C@H]([C@H](C)C[C@@H]2CC[C@@H](OC(=O)NCCOCCOCCOCCOCCOCCOCCOCCOCCC(=O)N3CCc4cc(Cn5nc(-c6ccc7oc(N)nc7c6)c6c(N)ncnc65)ccc4C3)[C@H](OC)C2)C[C@@H](O)[C@H](C)/C=C(\C)[C@@H](O)[C@@H](OC)C(=O)[C@H](C)C[C@H](C)/C=C/C=C/C=C/1C		phase 1 dose escalation, refers to: mucositis	advanced solid tumour patients	intravenous, 12 mg weekly, grade ≥3		dose-reducing adverse events	0%
C[C@H]1CN(c2n[nH]c3nc(N[C@H]4CC[C@H](NS(=O)(=O)CCC(F)(F)F)CC4)ncc23)CCO1	Tyrosine-protein kinase SYK (SYK, Homo sapiens, UniProt P43405)	inhibitor, Kinobeads competition profiling		0.16 µM	baseline: vehicle	relative abundance	1.03
